# Experimental data gathered from unrelated publications.
# Each numbered part is a random draw from the data of one study; scales do not carry over between parts.

# Sample 1 — method: RNAcompete; molecule type: RNA; medium: in vitro; concentration: 20 nM; setting: 7-mer, probes averaged, single round; baseline: mean of 7-mers; reading: higher = stronger binding
# Target: PABPC1L2, full length, GST fusion (mouse, UniProt A0ABA7IW68)
# Target sequence (chain): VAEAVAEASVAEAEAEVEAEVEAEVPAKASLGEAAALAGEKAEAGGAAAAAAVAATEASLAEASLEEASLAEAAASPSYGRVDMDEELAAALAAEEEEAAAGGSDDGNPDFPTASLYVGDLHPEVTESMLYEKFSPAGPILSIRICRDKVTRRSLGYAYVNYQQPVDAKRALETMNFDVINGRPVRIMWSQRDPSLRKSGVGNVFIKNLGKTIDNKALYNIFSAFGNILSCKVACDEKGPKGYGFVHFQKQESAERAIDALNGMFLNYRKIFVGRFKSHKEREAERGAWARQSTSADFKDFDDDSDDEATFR
Strand,7-mer Z-score
GUGACAU,0.0297
GCCUACA,-0.142
AGGUCGG,0.111
ACACCCC,-0.313
GACAGCA,0.00979
GUAACGG,-0.0989
GCGAGGA,0.267
CUGCGCU,-0.298
UAUGCAG,0.0116
AGGCUUA,0.00617
CUGGUAU,-0.0192
AACCAGA,0.24
CCGUAGA,-0.171
ACUCUUG,-0.394
GGUUAUA,-0.0337
CAGCAAA,0.898
AGAUAUC,-0.289
CAAGACU,0.0424
AUUCUCA,-0.311
GCCCUUC,-0.36
UGCUCUA,-0.217
AGCAAAA,3.24
AUCAAGG,0.167
AAGCAGU,0.137
CGCAACU,-0.184

# Sample 2 — method: protein-binding microarray; molecule type: double-stranded DNA, one strand shown; medium: in vitro; concentration: not given; reading: higher = stronger binding
# Target: Hepatocyte nuclear factor 3-beta, forkhead domain (FOXA2, Homo sapiens, UniProt Q9Y261, residues 142-269)
# Setting: k-mer, scored over probes, only values ≥0.25
# Construct (chain): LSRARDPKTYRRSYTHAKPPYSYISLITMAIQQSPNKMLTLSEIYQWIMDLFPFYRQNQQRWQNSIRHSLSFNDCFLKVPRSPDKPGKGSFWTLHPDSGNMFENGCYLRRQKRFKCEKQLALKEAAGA
Strand,E-score
ACGTAAAA,0.268
ATATGGTA,0.367
CTATGTTA,0.274
AAGATATA,0.323
CAAATGTA,0.278
CAACTACA,0.254
TCAAGTAA,0.269
ACTGTGTA,0.3
TGTATACA,0.402
CTTGTAAC,0.361
GTTTGTTA,0.271
ATTGTGTA,0.325
ATGGTATC,0.273
ATTAAATG,0.301
CAATACGA,0.253
GACTATAC,0.283
AAATACAA,0.348

# Sample 3 — method: RNA Bind-n-Seq; molecule type: RNA; medium: in vitro; concentration: 365 nM; baseline: no-protein control; reading: higher = stronger binding
# Target: RNA binding protein fox-1 homolog 2, RRM domain, GST-SBP tag (RBFOX2, Homo sapiens, UniProt O43251-10, residues 100-194)
# Setting: natural RNA segment, single round, ends assumed
# Constant ends, left off below: GGGAGUUCUACAGUCCGACGAUC … UGGAAUUCUCGGGUGCCAA
# Target sequence (chain): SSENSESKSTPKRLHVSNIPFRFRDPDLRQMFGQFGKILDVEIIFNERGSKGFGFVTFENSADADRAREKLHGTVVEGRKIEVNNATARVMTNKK
Strand,RBNS enrichment (R)
UGACUUGGACCCACCAAGGCUUCUGAGCACACACAUCCAUGUGGCCGAGGUUUCUAGUGCUUCAUAGUGGCUCUUGUUCUGAGUUCUGUCCUGAGCCUCUUGUUACCUUG,0.279
UCUCUCUCCCCCUCAGCAUCUUCCCGCUGAGAGUGGUGGGGAAGAGCCUUGUCUUCUUAGCUGUCACCUGCCGAGGCUUCUGGGCCACUCAGGCCAGUGCACCCCUGGGC,0.216
UUAGGUGAUGUCCUCAGACCUGGACCCCCACCAGCCUCACUCCCCAUCCCAACCAGAGAUGGCUCACUUCGGAUCGAGGGUUGACUACAUCUCAUCAUCUCACGAAUCUG,0.554
AUGACCAAUGGGCCAUCGGACUGGAGACCCCUGAUUGUGGGAAGGGUUGCCAGGGAUAAAGAGCUUCCUCACUGGAUGGGACCCGCCUUUCUGUGUUGUGUUCUGCCCUG,0.897
CUCCAAAGAUAUUUGCACUGCUUUUAAUUAUUGCUGUGUAUCUAUUUCUUUGGGUAUUAUAACUGUGGUAAUAGAAACUUGAUUUAAUGGUCUGUACCAAGUCCCUAUUC,0.485
GGCAAUCUUUGCUGAUCUUCUAAAAAUACUUUUUUUUUCCUGAAGAAAAAAAAAGCCACACGAAGUGCAAUAGGGUUGUGCGGCGACUCAUUGAUAUUUCUCUGAUGUGA,0.35
CCAAGCUGGCAUAAGAACCAAGACCUUCAAAGCAGCCUGAACUCAAGAUGACAUAUUUUACAAGUUAGAGUAAAGUCAAGAGCUGAGUUGUUUUGUCCAACUCAGGAUGG,0.216
UAAUGCUGUUUGUAACCAUGCAUCUGUUUUCAUUCUUUGCUGUACCUUUUGCUGCCCAUCCUGUUACUUUUGAGUUUCUUUCAUUGUGGUUGUUCUUGGGUUCUUUUGUC,1.5
UCACACUCACACCAGUGCAUUACACUAACCUUGUUCACUGGAUUGUCUGGGGUGACUUGGGCUCAUAUCCACAAUAUUUGGUAUACGGUAGUAGGUUGGUGGGGGUGGGG,0.302
AACAAUUCUGCCGGUGCUGAAGUACCAAGAAUGUUUUCAUUUGCAUUUUCCUGGUUAAGAAAUCUGUAUAAAGUUAGUGAGAUGCAUAUUCUUUAUAUAAGGUGGGCAUC,0.948
CUUAACUGGAAAGUGACCGUCCACUGCCCCAUGGAGCCCAUCUGGACACAGCACAGCCCCAAAACCGUUAGCAGCUGGCUCUGUUUCCAAGCCUGGGGAGGGGUUCCUCA,0.56
UGGCAAUGAUUAAACCCAGCUUAGCAACGUGAGAAUUAUUUUUUUUUUUCUAAGAAGAAAAUUCAGAAGAAAAGUAACUGAGUUUUGUUACUGGUAAAAUGGAAAUACUU,0.447

# Sample 4 — method: protein binding microarray; molecule type: double-stranded DNA, one strand shown; medium: in vitro; concentration: not given; baseline: not given; reading: higher = stronger binding
# Target: Histone acetyltransferase KAT6A, winged helix 2, GST fusion (KAT6A, Homo sapiens, UniProt Q92794, residues 85-181)
# Setting: 8-mer, flanks averaged, mean of 2 arrays, mostly near background
# Residues (chain): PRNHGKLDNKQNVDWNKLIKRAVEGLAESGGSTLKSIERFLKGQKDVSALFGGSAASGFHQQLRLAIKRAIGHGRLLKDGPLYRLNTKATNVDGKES
Strand,E-score
GAGTATCA,-0.0276
GCAATATA,-0.0491
CTTTGGCC,-0.0815
ACGATTTA,-0.0925
ATACTCGA,-0.133
CCCCTACA,-0.162
AAAATATG,-0.0684
AAATGTTG,-0.171
CGTAAGAA,-0.0543
AGTGTCTG,0.125
CAGTACAG,-0.0645
AAAACATG,-0.15
GGGGTGTA,-0.0702
CCCGTAGC,0.018
GTTCAGCA,-0.00061
GACACAGC,0.145
CCACTATA,-0.0693
CCCCTTCA,-0.197
CATCTGAA,0.0047
CGCTGGCC,-0.0213
ACCCTTTA,0.0141
CCCGGAAC,0.117
CTAGTGAA,-0.0268
CGACAAGC,-0.0198
ACAGTCGC,-0.177

# Sample 5 — method: universal PBM; molecule type: double-stranded DNA, one strand shown; medium: in vitro; concentration: 600 nM; reading: higher = stronger binding
# Target: Sal-like protein 4, full length isoform A (SALL4, Homo sapiens, UniProt Q9UJQ4, residues 1-1053)
# Sequence of UniProt Q9UJQ4 (whole entry, looked up): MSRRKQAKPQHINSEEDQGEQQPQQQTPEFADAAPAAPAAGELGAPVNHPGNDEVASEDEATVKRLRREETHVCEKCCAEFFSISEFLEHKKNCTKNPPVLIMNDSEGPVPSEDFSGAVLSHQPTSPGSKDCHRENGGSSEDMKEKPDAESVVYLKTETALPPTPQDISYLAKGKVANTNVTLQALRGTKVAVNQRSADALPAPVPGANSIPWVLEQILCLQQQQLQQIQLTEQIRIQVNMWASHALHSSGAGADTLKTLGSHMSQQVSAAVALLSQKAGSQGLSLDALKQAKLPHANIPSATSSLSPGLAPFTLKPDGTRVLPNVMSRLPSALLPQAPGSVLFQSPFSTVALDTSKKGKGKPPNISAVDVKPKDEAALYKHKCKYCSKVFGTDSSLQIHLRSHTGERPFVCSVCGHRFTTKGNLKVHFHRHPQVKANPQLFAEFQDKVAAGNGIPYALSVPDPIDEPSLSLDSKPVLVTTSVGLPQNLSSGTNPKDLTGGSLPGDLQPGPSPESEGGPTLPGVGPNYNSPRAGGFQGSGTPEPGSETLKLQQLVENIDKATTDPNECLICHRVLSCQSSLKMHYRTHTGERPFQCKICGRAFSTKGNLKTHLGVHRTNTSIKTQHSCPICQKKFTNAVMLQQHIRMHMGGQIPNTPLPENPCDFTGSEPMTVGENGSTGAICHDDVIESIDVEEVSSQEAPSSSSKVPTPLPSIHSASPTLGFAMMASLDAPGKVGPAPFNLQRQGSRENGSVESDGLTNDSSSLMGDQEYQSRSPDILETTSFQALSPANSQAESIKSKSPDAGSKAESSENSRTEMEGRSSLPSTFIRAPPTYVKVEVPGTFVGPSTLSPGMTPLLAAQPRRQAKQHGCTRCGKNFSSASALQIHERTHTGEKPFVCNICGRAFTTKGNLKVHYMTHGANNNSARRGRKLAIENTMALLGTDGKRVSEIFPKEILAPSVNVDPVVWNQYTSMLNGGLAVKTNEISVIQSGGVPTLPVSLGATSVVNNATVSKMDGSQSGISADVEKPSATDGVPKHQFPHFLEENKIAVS
# Setting: 8-mer, flanks averaged, mean of replicates
Strand,E-score
AGACTTAA,0.0897
ACAAGCAG,0.0154
GGCACCAC,-0.316
GATAAGGA,0.0576
CAGCGATG,-0.156
GTTTTGGA,0.12
GCAGGGTA,-0.0262
ACAACAAA,0.154
AGATGTAA,0.283
CTTCTAAA,0.0785
CCTCATGC,-0.155
CAGTACCA,-0.104
CTCCCCTC,-0.343
AATTAAGT,0.31
TGAACCAA,0.155
ACACGGGT,-0.146
AGAGAGCT,-0.081
ACCAGCTA,-0.0497
ACAAAGGT,0.0221

# Sample 6 — method: aptamer microarray, sandwich; molecule type: DNA with 2'F-ANA; medium: in vitro; concentration: 200 nM; with: Cy3 exosite-II aptamer, 400 nM; reading: higher = stronger binding; strand: GGTTGGTGTGGTTGG
# Target: Prothrombin, mature alpha-thrombin (F2, Homo sapiens, UniProt P00734)
# Setting: whole 15-mer aptamer, many near background
Modification,mean fluorescence intensity [a.u.]
2'F-ANA at 1 4 5 7 9 10 12 15,46.3
2'F-ANA at 1 2 6 10 11 13 15,55
2'F-ANA at 1 3 6 9 12 13 14 15,93.5
2'F-ANA at 2 3 6 7 8 10,322
2'F-ANA at 1 3 6 7 8 12 13,478
2'F-ANA at 1 2 4 6 7 9 10 12,55.3
2'F-ANA at 1 2 3 8 9 13 15,234
2'F-ANA at 2 4 5 6 8 9 10 11 12 13 15,79.6
2'F-ANA at 2 5 6 7 10 11 15,66.5
2'F-ANA at 1 4 7 9 11 15,112
2'F-ANA at 3 5 6 10 11 13 15,61
2'F-ANA at 1 3 10 11 12 14 15,61.1
2'F-ANA at 3 4 6 9 11 12 14 15,245
2'F-ANA at 6 8 10 11 12 14,93.8
2'F-ANA at 1 2 3 5 9 10 11 12 13,62.4
2'F-ANA at 1 3 4 7 11 12,354
2'F-ANA at 1 4 5 8 10 11 12 13,46.1

# Some of these lines once more (sample 2):
Strand,E-score
CAAATGTA,0.278
CAACTACA,0.254
TCAAGTAA,0.269
ACTGTGTA,0.3
TGTATACA,0.402
CTTGTAAC,0.361
GTTTGTTA,0.271
ATTGTGTA,0.325
ATGGTATC,0.273
ATTAAATG,0.301
CAATACGA,0.253
GACTATAC,0.283
AAATACAA,0.348
